Measured values pooled from the literature.
Protocols differ between the studies behind these lines. Values joined by “and” are separate records of one study, mostly repeats; a detail may differ. Numbers after ± are the reported error.
qscR DNA-bound dimer: qscR, DNA-bound dimer (Pseudomonas aeruginosa, UniProt G3XD77)
BCL6: B-cell lymphoma 6 protein (BCL6, Homo sapiens, UniProt P41182)
DNA topoisomerase 4 subunit A with ParE subunit: DNA topoisomerase 4 subunit A, with ParE subunit (Escherichia coli K-12, UniProt P0AFI2)
GP1 NS5 methyltransferase domain: Genome polyprotein, NS5 methyltransferase domain (GP1, West Nile virus, UniProt Q9Q6P4)
NR1H3: Oxysterols receptor LXR-alpha (NR1H3, Homo sapiens, UniProt Q13133)
Mogs: Mogs (Mus musculus, UniProt Q80UM7)
plsY: Glycerol-3-phosphate acyltransferase (plsY, Streptococcus pneumoniae, UniProt P0A4Q0)

For CCCC(=O)CC(=O)N[C@H]1CCOC1=O, the IC50 was 5970 nM (qscR DNA-bound dimer; ligand binding, FRET displacement; protein 5 nM with DNA, together with: fluorescent ligand 2 µM).
For Cn1c(=O)n(CCC(C)(C)O)c2cc(Nc3c(Cl)cncc3Cl)ccc21, the IC50 was 22600 nM and 53900 nM and 41100 nM (BCL6).
For Nc1c(S(=O)(=O)O)cc(Nc2ccc(Nc3nc(Cl)nc(Nc4cccc(S(=O)(=O)O)c4)n3)c(S(=O)(=O)O)c2)c2c1C(=O)c1ccccc1C2=O, the IC50 was 4440 ± 210 nM (P2X purinoceptor 7 (P2RX7, Homo sapiens, UniProt Q99572); calcium mobilization, antagonist; MCF7 transfected with P2RX7; together with: 100 µM BzATP).
With O=C(O)C1=CCCN(CCON=C(c2ccccc2)c2ccccc2)C1 the IC50 was 210 nM (Sodium- and chloride-dependent GABA transporter 1 (Slc6a1, Rattus norvegicus, UniProt P23978); inhibitor; rat, concurrent measurement).
For O=C(O)CC(F)(F)C(=O)N1N=C(c2c(-c3ccc(Cl)cc3)c3ccccc3[nH]c2=O)C[C@H]1c1ccc(Cl)cc1, the IC50 was 41.7 nM (Ionotropic glutamate receptor NMDA 1/2D (GRIN2D/GRIN1, Homo sapiens, UniProt O15399+Q05586); steady-state current, inhibitor, whole-cell patch clamp; HEK293T; together with: glutamate, glycine).
Cn1c(=O)ccc2ccc(F)c(CCNC[C@H]3CN(c4ncc5c(n4)NC(=O)CO5)C(=O)O3)c21 has an IC50 of 112 nM (DNA topoisomerase 4 subunit A with ParE subunit; decatenation activity, inhibitor).
N#Cc1cc2nc(O)c(O)nc2cc1[N+](=O)[O-] gave an IC50 of 1500 ± 300 nM (Glutamate receptor 3 (Rattus norvegicus, UniProt P19492)).
CC1CCCN(c2ncc(Cl)c(Nc3ccc4c(c3)n(CCC(C)(C)O)c(=O)n4C)n2)C1 (centres unmarked) gave an IC50 of 890 nM and 360 nM and 810 nM (BCL6).
For O=C(CCCOc1ccc(Cl)cc1)NC1CCOC1=O (centres unmarked), the IC50 was 212 nM (qscR, ligand-binding domain (Pseudomonas aeruginosa, UniProt G3XD77); ligand binding, FRET displacement; ligand-binding domain 5 nM, together with: fluorescent ligand 2 µM).
COCCn1c2nc(=O)n(-c3ccccc3)c(=O)c-2nc2ccccc21 gave an IC50 of 12200 nM (GP1 NS5 methyltransferase domain; IC50-HTRF).
With COc1ncccc1-c1cnn2ccc(N3CCN(C(=O)OC(C)C)CC3)nc12 the IC50 was over 30000 nM (Histamine H2 receptor (HRH2, Homo sapiens, UniProt P25021); liability screen).
Cn1c(=O)n(CCC(C)(C)O)c2cc(Nc3nc(N4CCCC(C#N)C4)ncc3Cl)ccc21 (centres unmarked) gave an IC50 of 340 nM and 360 nM and 500 nM (BCL6).
Oc1cccc(CCN(CCc2ccccc2)CC2CC2)c1 has an IC50 of 9.5 nM (Kappa-type opioid receptor (Oprk1, Mus musculus, UniProt P33534); cAMP inhibition, agonist, GloSensor luminescence; HEK293; room temperature, together with: 30 µM forskolin).
O=C1c2ccccc2C(=O)C1c1ccccc1 gave an IC50 of 25000 ± 7080 nM (NR1H3; receptor activity, inhibitor; cells).
With Cc1c([C@H](C)[C@@H]2NC[C@@H](C)C[C@H]2O)ccc2c1C[C@H]1[C@H]2CC=C2C[C@@H](O)CC[C@@]21C the IC50 was 19800 ± 1360 nM (Nuclear receptor ROR-gamma, RORγt ligand-binding domain (RORC, Homo sapiens, UniProt P51449); co-activator peptide binding, inhibitor, HTRF; 2 h, RORγt LBD 100 nM, together with: SRC1-2 peptide 100 nM).
CO[C@H]1C[C@H](O[C@@H]2/C(C)=C/C[C@@H]3C[C@@H](C[C@]4(CC[C@H](C)[C@@H](C5CCCCC5)O4)O3)OC(=O)[C@@H]3C=C(C)/C(=N/O)[C@H]4OC/C(=C\C=C\[C@@H]2C)[C@]43O)O[C@@H](C)[C@@H]1O gave an IC50 of 10800 ± 3750 nM (NR1H3; receptor activity, inhibitor; cells).
The IC50 of O=c1c2ccccc2nc(S)n1-c1ccccc1 is reported as 4 ± 1.41 µg/mL (collagenase; enzyme activity, inhibitor; together with: casein substrate).
C=CC(=O)N[C@H]1C=C(C)c2c(-c3cnc4ccccc4c3)c3c(N)ncnc3n2C1 has an IC50 of 597 nM (Epidermal growth factor receptor (EGFR, Homo sapiens, UniProt P00533); EGFR phosphorylation, HTRF; HaCaT^WT cells; 2 h, together with: EGF).
With CNC(C)Cc1ccc2n[se]nc2c1 (centres unmarked) the IC50 was 22000 ± 18800 nM (Equilibrative nucleoside transporter 4 (SLC29A4, Homo sapiens, UniProt Q7RTT9)).
CCCCCCCCCC(=O)CC(=O)Nc1ccccc1 gave an IC50 of 44900 nM (qscR DNA-bound dimer; ligand binding, FRET displacement; protein 5 nM with DNA, together with: fluorescent ligand 2 µM).
With O=[N+]([O-])c1cc(NCCCCCCN2C[C@H](O)[C@@H](O)[C@H](O)[C@H]2CO)cc(-c2ccncc2)c1 the IC50 was 0.5 nM (Mogs; enzyme activity, inhibitor; together with: trisaccharide substrate).
Nc1ncnc2c1c(Oc1ccc(C(F)(F)F)cn1)nn2C1CC1 gave an IC50 of over 20000 nM (Calmodulin-domain protein kinase 1 (CDPK1, Toxoplasma gondii, UniProt Q9BJF5); enzyme activity, inhibitor).
The IC50 of O=c1[nH]c2ccccc2n1C1CCN(Cc2ccc(-c3nc4cc5[nH]cnc5cc4nc3-c3ccccc3)cc2)CC1 is reported as 2640 ± 1860 nM (Nuclear receptor ROR-gamma (RORC, Homo sapiens, UniProt P51449); reporter gene, inhibitor, GAL4 dual-luciferase reporter; HEK293T; 24 h).
C[C@H]1CN(c2n[nH]c3nc(N[C@H]4CC[C@H](NS(=O)(=O)CCC(F)(F)F)CC4)ncc23)CCO1 has an IC50 of at least 20000 nM (Receptor tyrosine-protein kinase erbB-4 (ERBB4, Homo sapiens, UniProt Q15303); biochemical).
For COc1cc(Nc2ncc(F)c(Nc3ccc4c(n3)NC(=O)C(C)(C)O4)n2)cc(OC)c1OC, the IC50 was over 10000 nM (Nitric oxide synthase 1 (Homo sapiens, UniProt P29475); enzyme activity, inhibitor).
CSc1ncc(Cl)c(Nc2ccc3c(c2)n(CCC(C)(C)O)c(=O)n3C)n1 gave an IC50 of 730 nM (BCL6).
For CCOP(=O)(OCC)Oc1cc(C)nc(C(C)C)n1, the IC50 was 3.9 ± 0.6 nM (carboxylesterase (mouse); PON1+/+ mouse liver homogenate; 30 min, 23 °C).
Cn1c(=O)n(CCC(C)(C)O)c2cc(Nc3nc(N4CCCC(CO)C4)ncc3Cl)ccc21 (centres unmarked) gave an IC50 of 110 nM and 170 nM (BCL6).
For CC(=O)c1cc(O)c2ccccc2c1O, the IC50 was 5700 nM (GP1 NS5 methyltransferase domain; IC50-disp).
C[C@@H]1C[C@H](C)CN(c2cc(Nc3ccc4c(c3)n(CCC(C)(C)O)c(=O)n4C)c(Cl)cn2)C1 has an IC50 of 3870 nM (BCL6).
Cn1c(=O)ccc2ccc(F)c(CCNC[C@@H]3CN(c4cnc5c(n4)NC(=O)CO5)C(=O)O3)c21 has an IC50 of 52 nM (DNA topoisomerase 4 subunit A with ParE subunit; decatenation activity, inhibitor).
CCCCCCCCCCCCCCCC(=O)C(F)(F)P(=O)(O)O has an IC50 of 39000 nM (plsY; inhibitor).
For CN1Cc2cc(Cl)ccc2-n2c(nnc2C2CCN(c3ccccn3)CC2)C1, the IC50 was over 10000 nM (Vasopressin V1b receptor (AVPR1B, Homo sapiens, UniProt P47901); binding).
With CCCCCC/C=C\CCCCCCCCCC(=O)CP(=O)(O)O the IC50 was 48000 nM (plsY; inhibitor).
Cn1c(=O)n(C)c2cc(Nc3cc(SCc4ccccc4)ncn3)ccc21 gave an IC50 of 57000 nM and 114000 nM and 53000 nM (BCL6).
With O=[N+]([O-])c1cc(N2[C@@H]3CC[C@H]2COC3)ccc1NCc1ccc(CN2C[C@H](O)[C@@H](O)[C@H](O)[C@H]2CO)cc1 the IC50 was under 1 nM (Mogs; enzyme activity, inhibitor; together with: trisaccharide substrate).
Cn1c(=O)n(CCC(C)(C)O)c2cc(Nc3ccnc(Cl)c3C#N)ccc21 gave an IC50 of 790 nM and 910 nM and 870 nM (BCL6).
With COCO[C@@H]1[C@H]2OC(C)(C)O[C@H]2[C@H](O[C@H]2C[C@H]3OC(C)(C)OC[C@]34[C@@H]3[C@@H](CC[C@]4(O)C2)[C@@]2(O)CC[C@H](CO)[C@@]2(C)C[C@H]3OCOC)O[C@H]1C the IC50 was over 62500 nM (Voltage-gated inwardly rectifying potassium channel KCNH2 (KCNH2, Homo sapiens, UniProt Q12809); inhibitor).

A few entries again:
C[C@H]1CN(c2n[nH]c3nc(N[C@H]4CC[C@H](NS(=O)(=O)CCC(F)(F)F)CC4)ncc23)CCO1 has an IC50 of at least 20000 nM (Receptor tyrosine-protein kinase erbB-4 (ERBB4, Homo sapiens, UniProt Q15303); biochemical).
Cn1c(=O)ccc2ccc(F)c(CCNC[C@H]3CN(c4ncc5c(n4)NC(=O)CO5)C(=O)O3)c21 has an IC50 of 112 nM (DNA topoisomerase 4 subunit A with ParE subunit; decatenation activity, inhibitor).
